Results pooled from the literature.
Target: Mitogen-activated protein kinase 13 (MAPK13, Homo sapiens, UniProt O15264)
Residues used in one study (O15264 1-365): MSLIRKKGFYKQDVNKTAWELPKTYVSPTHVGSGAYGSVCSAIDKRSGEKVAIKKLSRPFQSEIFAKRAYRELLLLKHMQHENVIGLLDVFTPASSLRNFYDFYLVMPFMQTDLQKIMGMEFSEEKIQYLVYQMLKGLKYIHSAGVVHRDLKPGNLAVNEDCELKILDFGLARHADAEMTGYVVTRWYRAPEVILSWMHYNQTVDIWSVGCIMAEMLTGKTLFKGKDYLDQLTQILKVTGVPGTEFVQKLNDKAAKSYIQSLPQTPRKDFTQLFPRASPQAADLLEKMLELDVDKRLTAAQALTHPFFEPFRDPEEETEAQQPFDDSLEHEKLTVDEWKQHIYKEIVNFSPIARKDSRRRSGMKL

Compound	test	conditions	scale	measurement	value
COc1cc(-c2cncc3c2CN(C)Cc2cc(N4CCNCC4)ccc2-3)cc(OC)c1OC	kinase activity	1 µM, human enzyme, added: ATP 10 µM	relative to: DMSO control	remaining activity	109%
CNc1ncc2c(/C=C/C(=O)N3CCC(OC)CC3)nn(Cc3cccc(C(F)(F)F)c3)c2n1	kinase activity, inhibitor	1 µM	relative to: untreated control	remaining activity	102%
C=CC(=O)N1CCC(COCC(=O)N2CCN(c3nc(-c4cnc(N)nc4C(F)F)nc(N4CCOC[C@@H]4C)n3)CC2)CC1	KINOMEscan	1 µM	–	remaining binding	100%
CC(C)(C)Cn1c(N)nc2ccc(-c3[nH]c(C(C)(C)C)nc3-c3ccc(F)cc3)nc21	inhibitor	up to 10 µM	–	kinase activity	inactive
COc1cc(F)ccc1-c1ncnc(Nc2cccc(C[S@](C)(=N)=O)c2)n1	kinase activity	10 µM, added: 10 µM ATP	–	remaining activity	102%
O=C1NC(=O)/C(=C/c2ccc(-c3ccc(F)cc3O)o2)S1	enzyme activity	10 µM	–	remaining activity	38%
Cc1cc(Nc2cc(N3CCN(C)CC3)nc(Sc3ccc(NC(=O)C4CC4)cc3)n2)[nH]n1	kinase activity, KinaseProfiler	0.03 µM, species human	relative to: control	remaining activity	92%
Cc1cc(C)nc(NC(=S)N2CCN(Cc3ccc(C(F)(F)F)cc3)CC2)c1	inhibitor, ADP-Glo	concentration not given	–	kinase activity	no effect
